{"data": "Assay results gathered from unrelated publications", "note": "A part holds a random share of what one study measured.", "UniProt P51451, sequence (whole entry, looked up)": "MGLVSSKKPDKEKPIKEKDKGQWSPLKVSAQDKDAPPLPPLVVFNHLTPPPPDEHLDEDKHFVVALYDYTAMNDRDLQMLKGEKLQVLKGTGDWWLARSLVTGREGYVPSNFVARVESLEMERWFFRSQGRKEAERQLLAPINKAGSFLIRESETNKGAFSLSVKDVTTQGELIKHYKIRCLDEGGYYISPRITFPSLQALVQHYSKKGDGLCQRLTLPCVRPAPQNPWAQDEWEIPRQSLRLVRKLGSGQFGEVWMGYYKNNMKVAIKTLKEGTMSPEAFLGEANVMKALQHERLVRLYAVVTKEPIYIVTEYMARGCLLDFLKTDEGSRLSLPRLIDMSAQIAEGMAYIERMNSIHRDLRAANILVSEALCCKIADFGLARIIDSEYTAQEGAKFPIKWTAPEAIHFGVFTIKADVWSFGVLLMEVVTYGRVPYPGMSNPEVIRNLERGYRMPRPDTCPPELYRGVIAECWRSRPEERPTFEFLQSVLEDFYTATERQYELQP", "UniProt P51956, sequence (whole entry, looked up)": "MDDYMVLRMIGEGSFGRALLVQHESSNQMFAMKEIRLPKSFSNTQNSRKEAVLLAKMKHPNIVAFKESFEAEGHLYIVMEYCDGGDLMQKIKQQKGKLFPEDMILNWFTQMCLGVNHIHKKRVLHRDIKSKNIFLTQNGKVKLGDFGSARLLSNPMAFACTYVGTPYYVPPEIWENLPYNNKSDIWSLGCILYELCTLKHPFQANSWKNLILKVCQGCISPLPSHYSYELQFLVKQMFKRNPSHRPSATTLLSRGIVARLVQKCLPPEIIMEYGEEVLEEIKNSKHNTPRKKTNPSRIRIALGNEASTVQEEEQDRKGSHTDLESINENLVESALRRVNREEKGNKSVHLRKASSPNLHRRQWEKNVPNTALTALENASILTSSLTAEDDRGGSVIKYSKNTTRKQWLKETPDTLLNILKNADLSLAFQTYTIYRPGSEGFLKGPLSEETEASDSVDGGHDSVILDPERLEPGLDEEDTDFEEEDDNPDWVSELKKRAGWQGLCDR", "UniProt Q15759, sequence (whole entry, looked up)": "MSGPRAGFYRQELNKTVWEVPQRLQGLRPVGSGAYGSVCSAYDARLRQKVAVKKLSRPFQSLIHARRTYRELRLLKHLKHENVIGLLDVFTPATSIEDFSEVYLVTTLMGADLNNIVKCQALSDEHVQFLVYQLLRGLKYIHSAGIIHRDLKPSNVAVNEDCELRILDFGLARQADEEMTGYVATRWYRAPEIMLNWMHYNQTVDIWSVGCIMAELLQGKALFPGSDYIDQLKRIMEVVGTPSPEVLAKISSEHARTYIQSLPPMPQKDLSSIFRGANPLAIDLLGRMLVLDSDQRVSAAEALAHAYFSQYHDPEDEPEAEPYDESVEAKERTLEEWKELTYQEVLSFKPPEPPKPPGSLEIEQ", "UniProt P29323, sequence (whole entry, looked up)": "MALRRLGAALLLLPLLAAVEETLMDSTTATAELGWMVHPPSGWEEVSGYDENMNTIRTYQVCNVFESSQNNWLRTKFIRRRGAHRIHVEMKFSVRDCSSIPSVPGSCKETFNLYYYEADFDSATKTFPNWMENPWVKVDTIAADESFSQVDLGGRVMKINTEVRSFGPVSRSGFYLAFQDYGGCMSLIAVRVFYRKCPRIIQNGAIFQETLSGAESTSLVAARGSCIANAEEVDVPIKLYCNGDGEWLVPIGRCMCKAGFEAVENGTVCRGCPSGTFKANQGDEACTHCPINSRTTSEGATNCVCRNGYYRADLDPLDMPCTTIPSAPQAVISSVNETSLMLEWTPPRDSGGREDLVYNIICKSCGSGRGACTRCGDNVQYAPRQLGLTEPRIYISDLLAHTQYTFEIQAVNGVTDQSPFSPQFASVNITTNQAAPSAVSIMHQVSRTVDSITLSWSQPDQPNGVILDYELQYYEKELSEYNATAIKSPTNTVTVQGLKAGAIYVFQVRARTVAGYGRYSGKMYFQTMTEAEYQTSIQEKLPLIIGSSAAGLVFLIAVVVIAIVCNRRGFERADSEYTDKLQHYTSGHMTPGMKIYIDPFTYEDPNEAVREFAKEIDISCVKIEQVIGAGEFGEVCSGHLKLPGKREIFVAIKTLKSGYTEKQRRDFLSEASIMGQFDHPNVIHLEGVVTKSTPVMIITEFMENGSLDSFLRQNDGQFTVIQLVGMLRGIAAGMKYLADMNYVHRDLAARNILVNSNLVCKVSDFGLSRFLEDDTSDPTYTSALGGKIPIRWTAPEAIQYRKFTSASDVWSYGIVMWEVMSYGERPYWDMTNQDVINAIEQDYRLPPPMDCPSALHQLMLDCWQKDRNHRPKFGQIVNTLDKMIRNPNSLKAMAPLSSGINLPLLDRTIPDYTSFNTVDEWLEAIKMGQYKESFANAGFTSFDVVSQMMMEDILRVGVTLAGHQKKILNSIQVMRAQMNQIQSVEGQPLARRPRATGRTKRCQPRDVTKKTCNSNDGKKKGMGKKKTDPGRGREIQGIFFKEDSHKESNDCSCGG"}
{"data": "Sample 1", "organism": "Sarcocystis neurona", "observed": "parasite growth", "tested at": "10 µM", "time": "96 h", "notes": "second screen", "relative to": "untreated"}
{"SMILES": "CCOC(=O)c1ncn2c1CN(C)C(=O)c1cc(F)ccc1-2", "log2 fold change": 0.05}
{"SMILES": "CC[C@]1(O)C[C@@H]2CN(CCc3c([nH]c4ccccc34)[C@@](C(=O)OC)(c3cc4c(cc3OC)N(C)[C@H]3[C@@](O)(C(N)=O)[C@H](O)[C@]5(CC)C=CCN6CC[C@]43[C@@H]65)C2)C1", "log2 fold change": 0.04}
{"SMILES": "CC#C[C@]1(O)CC[C@H]2[C@@H]3CCC4=CC(=O)CCC4=C3[C@@H](c3ccc(N(C)C)cc3)C[C@@]21C", "log2 fold change": -0.13}
{"SMILES": "CC(C)(C#N)c1cc(Cn2cncn2)cc(C(C)(C)C#N)c1", "log2 fold change": 0.54}
{"data": "Sample 2", "Structure (SMILES)": "O=c1c2ccccc2[nH]c(=S)n1CCN1CCC(=C(c2ccc(F)cc2)c2ccc(F)cc2)CC1", "observed": "enzyme activity", "mode": "inhibitor", "tested at": "0.5 µM", "relative to": "control"}
{"target": "DDR2 (Homo sapiens, UniProt Q16832)", "remaining activity [%]": 97.6}
{"target": "Cyclin-dependent kinase 1, with cyclin A (CDK1, Homo sapiens, UniProt P06493)", "remaining activity [%]": 96.8}
{"target": "MAPK11 (Homo sapiens, UniProt Q15759)", "remaining activity [%]": 99.3}
{"target": "MAP2K1 (Homo sapiens, UniProt Q02750)", "remaining activity [%]": 97.5}
{"target": "ROCK1 (Homo sapiens, UniProt Q13464)", "remaining activity [%]": 97.2}
{"target": "CLK4 (Homo sapiens, UniProt Q9HAZ1)", "remaining activity [%]": 103}
{"target": "NEK3 (Homo sapiens, UniProt P51956)", "remaining activity [%]": 94}
{"target": "MARK4 (Homo sapiens, UniProt Q96L34)", "remaining activity [%]": 102}
{"target": "RPS6KA4 (Homo sapiens, UniProt O75676)", "remaining activity [%]": 103}
{"target": "CAMK4 (Homo sapiens, UniProt Q16566)", "remaining activity [%]": 94.7}
{"target": "PLK3 (Homo sapiens, UniProt Q9H4B4)", "remaining activity [%]": 96.2}
{"data": "Sample 3", "Structure (SMILES)": "CN([C@@H]1CCc2c(CC(=O)O)c3ccccc3n2C1)S(=O)(=O)c1ccc(F)cc1", "observed": "cell-free assay", "method": "competition with immobilised ligand", "tested at": "1 µM"}
{"target": "EPHB2 (Homo sapiens, UniProt P29323)", "remaining binding [%]": 100}
{"target": "WEE2 (Homo sapiens, UniProt P0C1S8)", "remaining binding [%]": 100}
{"target": "PDGFRB (Homo sapiens, UniProt P09619)", "remaining binding [%]": 97}
{"target": "BLK (Homo sapiens, UniProt P51451)", "remaining binding [%]": 100}
{"data": "Sample 4", "SMILES": "CN1CCN(C(=O)c2ccc(NC(=O)Nc3ccc(N(C)c4ccnc(Nc5ccc(CS(C)(=O)=O)cc5)n4)cc3)cc2)CC1"}
{"target": "MET (Homo sapiens, UniProt P08581)", "observed": "binding", "tested at": "1 µM", "remaining binding": "8.8%"}
{"target": "ABL2 (Homo sapiens, UniProt P42684)", "observed": "binding", "method": "competition with immobilised ligand", "tested at": "1 µM", "remaining binding": "44%"}
{"target": "TNIK (Homo sapiens, UniProt Q9UKE5)", "observed": "binding", "method": "competition with immobilised ligand", "tested at": "1 µM", "remaining binding": "23%"}
{"target": "TXK (Homo sapiens, UniProt P42681)", "observed": "binding", "method": "competition with immobilised ligand", "tested at": "1 µM", "remaining binding": "15%"}
{"target": "CDK19 (Homo sapiens, UniProt Q9BWU1)", "method": "DiscoverX cell-free binding", "tested at": "1000 nM", "remaining binding": "100%"}
{"data": "Single results of other studies", "target": "DNA polymerase theta, ATPase domain (POLQ, Homo sapiens, UniProt O75417)", "observed": "enzyme activity", "mode": "inhibitor", "tested at": "77 µM", "relative to": "untreated", "UniProt O75417, sequence (whole entry, unmodified, looked up)": "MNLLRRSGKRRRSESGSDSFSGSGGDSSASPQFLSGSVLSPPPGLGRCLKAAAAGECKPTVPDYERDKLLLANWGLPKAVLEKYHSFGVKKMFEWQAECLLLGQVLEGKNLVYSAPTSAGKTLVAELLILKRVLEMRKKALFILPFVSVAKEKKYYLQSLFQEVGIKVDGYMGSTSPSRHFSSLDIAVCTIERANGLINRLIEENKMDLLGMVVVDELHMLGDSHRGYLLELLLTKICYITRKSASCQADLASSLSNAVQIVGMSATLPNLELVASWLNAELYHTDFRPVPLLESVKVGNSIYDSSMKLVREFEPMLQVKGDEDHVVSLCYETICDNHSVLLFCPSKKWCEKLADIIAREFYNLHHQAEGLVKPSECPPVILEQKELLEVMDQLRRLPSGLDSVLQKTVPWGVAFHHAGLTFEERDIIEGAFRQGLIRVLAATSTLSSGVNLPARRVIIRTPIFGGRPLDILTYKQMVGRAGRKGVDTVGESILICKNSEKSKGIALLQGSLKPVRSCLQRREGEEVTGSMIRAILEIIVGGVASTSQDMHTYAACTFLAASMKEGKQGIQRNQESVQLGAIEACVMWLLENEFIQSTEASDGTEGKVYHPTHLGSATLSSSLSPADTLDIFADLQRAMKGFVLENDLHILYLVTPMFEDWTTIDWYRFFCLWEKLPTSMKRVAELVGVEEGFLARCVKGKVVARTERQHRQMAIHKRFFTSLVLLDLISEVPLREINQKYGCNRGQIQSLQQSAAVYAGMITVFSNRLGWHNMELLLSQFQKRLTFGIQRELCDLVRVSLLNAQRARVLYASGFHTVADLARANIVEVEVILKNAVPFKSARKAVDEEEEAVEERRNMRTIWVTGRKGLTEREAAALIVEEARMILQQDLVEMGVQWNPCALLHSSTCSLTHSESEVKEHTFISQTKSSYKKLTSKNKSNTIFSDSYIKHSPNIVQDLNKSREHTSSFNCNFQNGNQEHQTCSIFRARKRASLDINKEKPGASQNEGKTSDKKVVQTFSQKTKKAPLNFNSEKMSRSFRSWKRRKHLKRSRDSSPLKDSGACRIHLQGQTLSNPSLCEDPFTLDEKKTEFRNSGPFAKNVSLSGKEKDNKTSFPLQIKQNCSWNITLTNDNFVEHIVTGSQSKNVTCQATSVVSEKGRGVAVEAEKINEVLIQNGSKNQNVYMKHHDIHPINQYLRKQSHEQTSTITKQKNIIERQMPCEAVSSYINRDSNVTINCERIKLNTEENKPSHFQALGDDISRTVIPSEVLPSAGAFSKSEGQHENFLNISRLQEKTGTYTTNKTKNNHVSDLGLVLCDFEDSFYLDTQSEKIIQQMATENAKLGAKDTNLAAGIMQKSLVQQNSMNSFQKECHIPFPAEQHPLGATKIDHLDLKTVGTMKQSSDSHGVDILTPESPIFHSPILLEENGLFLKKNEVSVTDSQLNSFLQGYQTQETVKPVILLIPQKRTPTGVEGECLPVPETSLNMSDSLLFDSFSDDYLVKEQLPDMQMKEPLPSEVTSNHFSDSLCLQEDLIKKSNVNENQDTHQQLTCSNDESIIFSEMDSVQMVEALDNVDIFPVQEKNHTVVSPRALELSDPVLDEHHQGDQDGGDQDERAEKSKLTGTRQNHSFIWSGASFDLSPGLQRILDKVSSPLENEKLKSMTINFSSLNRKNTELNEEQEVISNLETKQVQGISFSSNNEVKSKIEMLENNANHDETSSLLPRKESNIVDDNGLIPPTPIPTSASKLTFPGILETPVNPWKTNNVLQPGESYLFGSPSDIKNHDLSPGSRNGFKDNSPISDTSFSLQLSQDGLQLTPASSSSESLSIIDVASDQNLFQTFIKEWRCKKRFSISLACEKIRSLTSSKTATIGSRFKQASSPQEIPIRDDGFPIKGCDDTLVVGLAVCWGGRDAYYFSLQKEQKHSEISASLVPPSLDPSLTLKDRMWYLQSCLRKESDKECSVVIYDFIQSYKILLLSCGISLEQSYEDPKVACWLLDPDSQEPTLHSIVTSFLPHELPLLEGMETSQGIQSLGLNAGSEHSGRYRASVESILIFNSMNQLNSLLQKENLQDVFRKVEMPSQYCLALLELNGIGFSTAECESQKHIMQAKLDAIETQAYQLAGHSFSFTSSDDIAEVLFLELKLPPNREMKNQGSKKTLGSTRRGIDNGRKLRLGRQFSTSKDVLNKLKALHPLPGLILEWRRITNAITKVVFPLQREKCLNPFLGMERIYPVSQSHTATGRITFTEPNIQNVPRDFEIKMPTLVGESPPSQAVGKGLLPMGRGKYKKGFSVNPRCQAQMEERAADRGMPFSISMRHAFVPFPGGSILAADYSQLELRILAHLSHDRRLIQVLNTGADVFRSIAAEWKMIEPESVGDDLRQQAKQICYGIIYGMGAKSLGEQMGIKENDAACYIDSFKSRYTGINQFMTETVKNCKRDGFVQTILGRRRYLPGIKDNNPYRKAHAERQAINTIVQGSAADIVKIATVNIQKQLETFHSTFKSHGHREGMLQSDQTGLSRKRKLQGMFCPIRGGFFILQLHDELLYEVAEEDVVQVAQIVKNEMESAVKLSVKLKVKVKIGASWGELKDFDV"}
{"Compound": "CO[C@H]1C[C@@H]2CC[C@@H](C)[C@@](O)(O2)C(=O)C(=O)N2CCCC[C@H]2C(=O)O[C@H]([C@H](C)C[C@@H]2CC[C@@H](OP(C)(C)=O)[C@H](OC)C2)CC(=O)[C@H](C)/C=C(\\C)[C@@H](O)[C@@H](OC)C(=O)[C@H](C)C[C@H](C)/C=C/C=C/C=C/1C", "remaining activity [%]": 92.9}
{"Compound": "CCC(=O)c1c(O)cc(O)cc1O", "remaining activity [%]": 104}
{"note": "For quick reference, copied from above (sample 2):"}
{"target": "CLK4 (Homo sapiens, UniProt Q9HAZ1)", "remaining activity [%]": 103}
{"target": "NEK3 (Homo sapiens, UniProt P51956)", "remaining activity [%]": 94}
{"target": "MARK4 (Homo sapiens, UniProt Q96L34)", "remaining activity [%]": 102}
